Measured values gathered from unrelated publications.
Protocols differ between the studies behind these lines. ± gives the spread as reported.

| Structure (SMILES) | test | test system | conditions | how to read | quantity | result |
| --- | --- | --- | --- | --- | --- | --- |
| CCCCN1C(=O)c2cccc3c(NCCN4CCOCC4)ccc(c23)C1=O | – | dichloromethane | – | – | absorption maximum | 428 nm |
| Cc1noc(C)c1Cn1cc(N2C(=O)CN(Cc3cccc(OS(=O)(=O)O)c3)C2=O)cn1 | – | Sprague-Dawley rat, male | oral, 10 mg/kg of parent drug, 8 h | – | plasma concentration | 764 ng/mL |
| C=C[C@]1(C)C[C@@H](OC(=O)CSc2ccc(NC(=O)c3ccco3)cc2)[C@]2(C)[C@H](C)CC[C@]3(CCC(=O)[C@H]32)[C@@H](C)[C@@H]1O | – | M. gallisepticum-infected chickens, plasma | intramuscular, 80 mg/kg single dose | – | central volume (V1/F) | 6.78 L/kg |
| COc1cccc(OC)c1-c1cc(C(=O)NC2(C(=O)O)C3CC4CC(C3)CC2C4)nn1-c1ccc(C(=O)N(C)CCOCCN(C)C(=O)[C@H](CCCCNC(=O)[C@H](CC(C)C)NC(=O)C2OC2C(=O)O)NC(=O)CN2CCN(CC(=O)[O-])CCN(CC(=O)[O-])CCN(CC(=O)[O-])CC2)cc1C(C)C.[177Lu+3] (mixture of isomers) | – | mouse, HT-29 xenograft, liver | 4 h post injection | – | tissue uptake | 1.8 %ID/g |
| CCCCN1C(=O)c2cccc3c(NCCCCCCN4CCOCC4)ccc(c23)C1=O | – | methanol | – | – | absorption maximum | 444 nm |
| Cc1cc(C)n(CCN(CCN)CCCCCCNC(=O)[C@@H](N)Cc2c[nH]cn2)n1.[99Tc+].[C-]#[O+].[C-]#[O+].[C-]#[O+] | – | BALB/c nude mice, A549 xenograft, spleen | intravenous, 15 min | – | tissue uptake | 0.63 ± 0.02 %IA/g |
| CN1CCN(C(=S)N/N=C/c2ccccc2O)CC1 | – | plasma | intravenous, 30 mg/kg | – | clearance | 170 ± 19.5 mL/min/kg |
| COc1ccccc1NC(=O)OC1C(C)C(OC)C=COC2(C)Oc3c(C)c(O)c4c(c3C2=O)C2=NC3(CCN(CC(C)C)CC3)NC2=C(NC(=O)C(C)=CC=CC(C)C(O)C(C)C(O)C1C)C4=O (stereo not drawn) | – | CD-1 mouse female, plasma | intravenous, 5 mg/kg | – | clearance | 3.67 mL/min/kg |
| O=C(NCCN1C(=O)CCC1=O)[O][Pt]12([O]C(=O)NCCN3C(=O)CCC3=O)([NH][C@@H]3CCCC[C@H]3[NH]1)[O]C(=O)C(=O)[O]2 | AUC-based, measured: platinum | BALB/c mice, CT26 tumour | iv | baseline: tumour over serum | tumour to organ ratio | 0.7 |
| C=C(NC(=O)c1csc(-c2nc3c(cc2O)-c2nc(cs2)C(=O)NC(C(C)O)C(=O)NC(=C(C)OC)c2nc(cs2)C(=O)NC2c4nc(cs4)C(=O)NC(COC(=O)c4c5c6c(cccc6n4O)COC(=O)C(OC4CC(C)(O)C(N(C)C)C(C)O4)C2OC5)c2nc-3cs2)n1)C(N)=O (stereo not drawn) | – | cynomolgus monkey, both sexes, plasma | intravenous infusion, 3 mg/kg multiple doses, day 7 | – | MRT(0-last) | 1.46 h |
| O=C(O)/C=C\c1cc2ccoc2cc1O[C@@H]1O[C@H](CO)[C@@H](O)[C@H](O)[C@H]1O | post-procedure stability | rat plasma | 8 ng/mL, 3 h, room temperature | – | accuracy | 103% |
| Cc1ccc(CN2C(=O)/C(=N\c3ccc(Cl)cc3Br)c3ccccc32)cc1 | – | mouse, blood | 100 mg/kg | – | MPV | 5.34 ± 0.16 fL |
| O=C(Nc1cnccc1-c1ccc([18F])cc1)c1ccnc(NC(=O)C2CC2)c1 | – | FVB/NJ mouse, both sexes, brain | intravenous, 4 min post-injection, with: P-gp inhibitor tariquidar 15 mg/kg iv | – | SUV | 0.81 ± 0.28 |
| COCC1CN(C2CCN(c3cc(OC)c(Nc4ncc(Br)c(Nc5ccc6c(c5P(C)(C)=O)OCCO6)n4)cc3C)CC2)C1 | first-in-human trial | human | oral, 10 mg once daily | treatment-related leading to dose reduction | adverse events | 0% |
| O=C(Nc1cnccc1-c1ccc([18F])nc1)c1ccnc(NC(=O)C2CC2)c1 | – | mice, transgenic, GSK-3β, early-stage, lung | intravenous, dose not given, 120 min | – | SUV | 0.113 |
| CN(O)C(=O)CCC(=O)NCCCN(CCCCN(CCCNC(=O)CCC(=O)N(C)O)C(=O)CCC(=O)N(C)O)C(=O)CCC(=O)N(C)O.[89Zr] | radio-TLC | aqueous buffer | 3 d, pH 7.2, 37 °C, 89Zr-labelled complex, with: FeCl3 10-fold excess | – | intact complex | 97.8 ± 2.5% |
| CC(C)(O)c1ncc([S@](N)(=O)=NC(=O)Nc2c3c(cc4c2CCC4)CCC3)s1 | measured: nervous system disorders | healthy human subjects | oral, dose not given, all active doses | – | share of subjects with TEAEs | 31% |
| CC[C@H](C)[C@H](NC(=O)[C@H](CCCCN)NC(=O)[C@H](CCC(=O)O)NC(=O)[C@H](CO)NC(=O)[C@H](Cc1ccccc1)NC(=O)[C@H](CC(C)C)NC(=O)[C@H](CCC(N)=O)NC(=O)[C@H](CO)NC(=O)[C@H](C)NC(=O)[C@H](CCCCN)NC(=O)[C@H](Cc1c[nH]cn1)NC(=O)[C@H](Cc1c[nH]c2ccccc12)NC(=O)[C@H](CCC(N)=O)NC(=O)[C@H](CCCCN)NC(=O)[C@H](CCCCN)NC(=O)[C@H](CC(C)C)NC(=O)CNC(=O)[C@H](C)NC(=O)[C@@H](NC(=O)[C@H](CO)NC(=O)[C@@H](N)CCSC)C(C)C)C(=O)N[C@@H](CO)C(=O)NCC(=O)N[C@@H](C)C(N)=O | circular dichroism | aqueous TFE | 50 µM, pH 7.4, 20 °C | – | TFE midpoint | 2.69 ± 0.05 M |

Some of these lines once more:
| Structure (SMILES) | test | test system | conditions | how to read | quantity | result |
| --- | --- | --- | --- | --- | --- | --- |
| CN1CCN(C(=S)N/N=C/c2ccccc2O)CC1 | – | plasma | intravenous, 30 mg/kg | – | clearance | 170 ± 19.5 mL/min/kg |
| CC[C@H](C)[C@H](NC(=O)[C@H](CCCCN)NC(=O)[C@H](CCC(=O)O)NC(=O)[C@H](CO)NC(=O)[C@H](Cc1ccccc1)NC(=O)[C@H](CC(C)C)NC(=O)[C@H](CCC(N)=O)NC(=O)[C@H](CO)NC(=O)[C@H](C)NC(=O)[C@H](CCCCN)NC(=O)[C@H](Cc1c[nH]cn1)NC(=O)[C@H](Cc1c[nH]c2ccccc12)NC(=O)[C@H](CCC(N)=O)NC(=O)[C@H](CCCCN)NC(=O)[C@H](CCCCN)NC(=O)[C@H](CC(C)C)NC(=O)CNC(=O)[C@H](C)NC(=O)[C@@H](NC(=O)[C@H](CO)NC(=O)[C@@H](N)CCSC)C(C)C)C(=O)N[C@@H](CO)C(=O)NCC(=O)N[C@@H](C)C(N)=O | circular dichroism | aqueous TFE | 50 µM, pH 7.4, 20 °C | – | TFE midpoint | 2.69 ± 0.05 M |
| C=C(NC(=O)c1csc(-c2nc3c(cc2O)-c2nc(cs2)C(=O)NC(C(C)O)C(=O)NC(=C(C)OC)c2nc(cs2)C(=O)NC2c4nc(cs4)C(=O)NC(COC(=O)c4c5c6c(cccc6n4O)COC(=O)C(OC4CC(C)(O)C(N(C)C)C(C)O4)C2OC5)c2nc-3cs2)n1)C(N)=O (stereo not drawn) | – | cynomolgus monkey, both sexes, plasma | intravenous infusion, 3 mg/kg multiple doses, day 7 | – | MRT(0-last) | 1.46 h |
